Results collected from several papers.
Lines come from different studies, so protocols differ. Values joined by “and” are separate records of one study, mostly repeats; a detail may differ. ± gives the spread as reported.
Nuclear receptor subfamily 2 group C member 2 ligand-binding domain: Nuclear receptor subfamily 2 group C member 2, ligand-binding domain (Homo sapiens, UniProt P49116)
Chain of UniProt P27361 (whole entry, looked up): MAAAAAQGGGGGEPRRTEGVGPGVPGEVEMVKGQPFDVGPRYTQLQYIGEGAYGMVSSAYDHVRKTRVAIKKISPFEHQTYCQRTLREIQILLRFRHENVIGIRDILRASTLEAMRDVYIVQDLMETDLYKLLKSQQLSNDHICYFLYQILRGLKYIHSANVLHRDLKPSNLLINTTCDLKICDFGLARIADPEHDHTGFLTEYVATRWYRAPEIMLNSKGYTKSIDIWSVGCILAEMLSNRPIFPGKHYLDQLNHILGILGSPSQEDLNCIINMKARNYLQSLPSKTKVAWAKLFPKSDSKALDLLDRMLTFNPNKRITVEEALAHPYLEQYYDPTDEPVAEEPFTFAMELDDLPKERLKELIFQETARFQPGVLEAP
Chain of UniProt P11388 (whole entry, looked up): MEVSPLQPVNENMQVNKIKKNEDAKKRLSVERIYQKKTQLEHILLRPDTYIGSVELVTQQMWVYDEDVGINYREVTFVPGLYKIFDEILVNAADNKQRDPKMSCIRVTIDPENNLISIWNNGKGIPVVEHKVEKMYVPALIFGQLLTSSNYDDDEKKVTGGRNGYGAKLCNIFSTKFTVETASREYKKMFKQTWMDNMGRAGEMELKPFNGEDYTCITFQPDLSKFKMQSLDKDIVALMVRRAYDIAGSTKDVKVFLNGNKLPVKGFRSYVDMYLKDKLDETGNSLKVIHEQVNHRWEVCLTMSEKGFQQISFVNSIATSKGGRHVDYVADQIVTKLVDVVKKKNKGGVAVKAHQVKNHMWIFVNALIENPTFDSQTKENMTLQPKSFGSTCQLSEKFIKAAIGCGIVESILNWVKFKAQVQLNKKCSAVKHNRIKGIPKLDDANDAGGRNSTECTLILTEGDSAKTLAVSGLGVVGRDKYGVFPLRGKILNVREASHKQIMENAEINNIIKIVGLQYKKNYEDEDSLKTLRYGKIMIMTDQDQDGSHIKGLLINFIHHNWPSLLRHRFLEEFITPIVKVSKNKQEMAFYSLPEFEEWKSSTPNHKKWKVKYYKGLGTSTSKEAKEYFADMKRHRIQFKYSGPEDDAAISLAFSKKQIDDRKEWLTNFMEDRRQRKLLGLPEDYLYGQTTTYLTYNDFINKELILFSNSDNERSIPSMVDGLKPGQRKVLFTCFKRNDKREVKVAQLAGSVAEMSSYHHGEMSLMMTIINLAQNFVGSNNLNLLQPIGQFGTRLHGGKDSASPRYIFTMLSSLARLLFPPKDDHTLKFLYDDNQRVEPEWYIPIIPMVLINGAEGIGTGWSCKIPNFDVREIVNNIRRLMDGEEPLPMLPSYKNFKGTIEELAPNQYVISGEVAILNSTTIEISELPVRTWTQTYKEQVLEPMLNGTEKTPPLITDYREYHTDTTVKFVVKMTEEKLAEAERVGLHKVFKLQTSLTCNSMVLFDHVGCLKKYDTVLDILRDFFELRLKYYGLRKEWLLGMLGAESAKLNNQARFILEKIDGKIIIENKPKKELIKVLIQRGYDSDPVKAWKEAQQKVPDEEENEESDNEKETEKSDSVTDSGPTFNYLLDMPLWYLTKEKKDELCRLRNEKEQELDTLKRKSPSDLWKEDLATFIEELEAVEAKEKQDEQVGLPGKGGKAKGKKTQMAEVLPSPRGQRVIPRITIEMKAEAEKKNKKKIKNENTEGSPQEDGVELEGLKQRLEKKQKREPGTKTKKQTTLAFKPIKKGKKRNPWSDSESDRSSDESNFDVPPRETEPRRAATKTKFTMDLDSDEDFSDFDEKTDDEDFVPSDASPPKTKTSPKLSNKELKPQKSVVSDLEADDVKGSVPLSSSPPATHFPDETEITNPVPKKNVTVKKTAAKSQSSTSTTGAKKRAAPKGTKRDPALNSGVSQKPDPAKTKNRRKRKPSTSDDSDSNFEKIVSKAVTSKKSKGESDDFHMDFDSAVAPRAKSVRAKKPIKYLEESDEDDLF
Chain of UniProt P49116 (whole entry, looked up): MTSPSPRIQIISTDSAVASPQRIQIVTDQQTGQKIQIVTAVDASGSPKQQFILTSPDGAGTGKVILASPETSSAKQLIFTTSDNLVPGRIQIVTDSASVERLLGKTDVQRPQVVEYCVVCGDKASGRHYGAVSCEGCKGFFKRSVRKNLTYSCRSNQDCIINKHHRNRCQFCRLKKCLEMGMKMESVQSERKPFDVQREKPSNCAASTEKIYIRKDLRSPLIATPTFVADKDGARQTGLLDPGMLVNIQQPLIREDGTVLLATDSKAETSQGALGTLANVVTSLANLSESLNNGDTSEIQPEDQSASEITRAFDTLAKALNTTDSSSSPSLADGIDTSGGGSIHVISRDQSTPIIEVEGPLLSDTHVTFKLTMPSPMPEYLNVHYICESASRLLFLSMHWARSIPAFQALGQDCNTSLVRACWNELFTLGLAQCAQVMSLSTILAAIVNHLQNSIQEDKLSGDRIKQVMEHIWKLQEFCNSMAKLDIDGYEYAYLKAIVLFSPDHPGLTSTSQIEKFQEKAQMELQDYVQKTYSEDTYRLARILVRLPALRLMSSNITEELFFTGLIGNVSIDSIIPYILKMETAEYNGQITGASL
Chain of UniProt Q5AP53 (whole entry, looked up): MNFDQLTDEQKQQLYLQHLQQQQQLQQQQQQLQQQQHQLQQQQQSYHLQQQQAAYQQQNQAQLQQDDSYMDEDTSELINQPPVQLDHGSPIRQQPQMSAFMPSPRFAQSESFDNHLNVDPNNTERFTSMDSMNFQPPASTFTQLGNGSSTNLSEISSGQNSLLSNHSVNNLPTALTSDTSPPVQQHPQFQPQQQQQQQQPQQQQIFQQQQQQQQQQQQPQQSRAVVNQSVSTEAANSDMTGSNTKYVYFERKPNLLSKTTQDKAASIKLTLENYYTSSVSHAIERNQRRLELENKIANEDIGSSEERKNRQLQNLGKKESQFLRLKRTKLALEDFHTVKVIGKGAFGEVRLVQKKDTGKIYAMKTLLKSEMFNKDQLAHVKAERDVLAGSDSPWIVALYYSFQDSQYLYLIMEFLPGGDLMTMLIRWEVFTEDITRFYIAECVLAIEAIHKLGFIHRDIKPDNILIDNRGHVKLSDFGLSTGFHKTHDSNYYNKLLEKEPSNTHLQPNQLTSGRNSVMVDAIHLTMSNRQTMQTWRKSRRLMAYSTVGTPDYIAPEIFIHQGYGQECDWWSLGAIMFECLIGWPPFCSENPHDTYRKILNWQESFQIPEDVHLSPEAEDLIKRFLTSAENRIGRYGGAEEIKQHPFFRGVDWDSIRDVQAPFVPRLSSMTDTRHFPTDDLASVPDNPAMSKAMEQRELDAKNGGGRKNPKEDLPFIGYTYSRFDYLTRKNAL
Chain of UniProt P34981 (whole entry, looked up): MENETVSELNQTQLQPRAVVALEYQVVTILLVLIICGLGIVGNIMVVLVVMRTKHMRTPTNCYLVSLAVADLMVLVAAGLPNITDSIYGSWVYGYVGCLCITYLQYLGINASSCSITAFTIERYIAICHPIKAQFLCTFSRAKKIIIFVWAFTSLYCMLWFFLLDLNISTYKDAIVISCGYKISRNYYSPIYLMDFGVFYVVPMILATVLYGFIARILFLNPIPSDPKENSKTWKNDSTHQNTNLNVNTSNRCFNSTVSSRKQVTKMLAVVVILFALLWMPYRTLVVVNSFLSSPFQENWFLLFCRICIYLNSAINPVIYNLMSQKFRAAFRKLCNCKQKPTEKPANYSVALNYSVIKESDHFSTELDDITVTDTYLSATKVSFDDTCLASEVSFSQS
Chain of UniProt P35414 (whole entry, looked up): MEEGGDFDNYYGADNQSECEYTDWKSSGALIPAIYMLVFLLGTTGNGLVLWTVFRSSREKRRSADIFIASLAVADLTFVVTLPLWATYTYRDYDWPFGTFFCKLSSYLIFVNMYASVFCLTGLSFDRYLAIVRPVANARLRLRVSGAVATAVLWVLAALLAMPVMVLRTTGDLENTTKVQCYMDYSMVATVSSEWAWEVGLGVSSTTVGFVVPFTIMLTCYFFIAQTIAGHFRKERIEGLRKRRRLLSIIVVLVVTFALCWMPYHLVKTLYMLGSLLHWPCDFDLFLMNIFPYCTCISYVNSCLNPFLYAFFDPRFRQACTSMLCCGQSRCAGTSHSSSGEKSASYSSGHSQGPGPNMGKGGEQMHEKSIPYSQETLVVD
Chain of UniProt P53341 (whole entry, unmodified, looked up): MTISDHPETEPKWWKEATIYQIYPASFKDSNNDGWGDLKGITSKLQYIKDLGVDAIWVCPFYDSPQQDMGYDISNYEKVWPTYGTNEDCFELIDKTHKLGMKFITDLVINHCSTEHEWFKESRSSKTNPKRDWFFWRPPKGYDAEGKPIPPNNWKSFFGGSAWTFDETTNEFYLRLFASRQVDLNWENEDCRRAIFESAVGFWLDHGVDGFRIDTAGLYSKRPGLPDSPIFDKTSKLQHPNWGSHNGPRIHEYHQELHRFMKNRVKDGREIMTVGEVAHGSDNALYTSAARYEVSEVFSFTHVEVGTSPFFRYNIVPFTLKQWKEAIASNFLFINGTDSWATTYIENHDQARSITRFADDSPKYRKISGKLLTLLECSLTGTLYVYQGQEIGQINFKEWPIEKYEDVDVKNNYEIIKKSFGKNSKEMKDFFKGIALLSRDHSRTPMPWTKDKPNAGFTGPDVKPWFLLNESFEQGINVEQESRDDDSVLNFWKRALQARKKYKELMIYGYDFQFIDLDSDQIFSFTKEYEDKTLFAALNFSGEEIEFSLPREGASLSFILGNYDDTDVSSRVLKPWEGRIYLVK
Chain of UniProt Q13163 (whole entry, looked up): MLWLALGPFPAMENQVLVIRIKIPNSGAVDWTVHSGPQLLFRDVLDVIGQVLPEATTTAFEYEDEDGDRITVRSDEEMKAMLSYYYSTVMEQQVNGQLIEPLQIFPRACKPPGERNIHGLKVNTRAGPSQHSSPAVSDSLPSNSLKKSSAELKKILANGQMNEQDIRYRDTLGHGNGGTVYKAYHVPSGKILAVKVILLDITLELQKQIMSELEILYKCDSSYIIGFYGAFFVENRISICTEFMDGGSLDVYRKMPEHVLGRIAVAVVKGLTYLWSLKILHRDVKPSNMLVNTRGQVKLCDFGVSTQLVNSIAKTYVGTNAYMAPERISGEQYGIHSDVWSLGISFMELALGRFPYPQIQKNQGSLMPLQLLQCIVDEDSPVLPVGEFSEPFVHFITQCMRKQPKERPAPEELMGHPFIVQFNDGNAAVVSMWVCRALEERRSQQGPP

Compound | target or system | assay | system | setting | scale | measurement | value
CCOc1cc(-c2nncn2C)ccc1Nc1ncc2cc(C)nc(NCC(C)(C)C)c2n1 | RIPK2 (Homo sapiens, UniProt O43353) | binding, LanthaScreen binding |  | 1 µM |  | displacement | 21%
CCOCc1nc(O)c(-c2nnc(Cc3ccc(Cl)cn3)o2)c(O)c1-c1c(OC)cccc1OC | Apelin receptor (APLNR, Homo sapiens, UniProt P35414) | Gαi2 activation, agonist, BRET biosensor | HEK293 |  |  | Emax | 105 ± 5%
Cc1n[nH]c2ccc(-c3cc(OC[C@@H](N)Cc4ccccc4)cnc3-c3ccoc3)cc12 | Serine/threonine-protein kinase CBK1 (CBK1, Candida albicans, UniProt Q5AP53) | kinase binding, competitor, MIB/MS competition, refers to: CBK1 | Candida albicans cell lysate | 100 nM | baseline: DMSO | log2 fold change | 0.0978
COc1cc(O)c2c(c1)oc(=O)c1c3cc(O)c(O)cc3oc21 | MAL12 (Saccharomyces cerevisiae S288c, UniProt P53341) | fluorescence quenching |  | 307 K |  | ΔG | -1.7 kcal/mol
COc1cc(F)ccc1-c1ncnc(Nc2cccc(C[S@](C)(=N)=O)c2)n1 | MAPKAPK2 (Homo sapiens, UniProt P49137) | kinase activity |  | 10 µM, together with: 10 µM ATP |  | remaining activity | 107%
CCC[C@H]1CN(c2cccc(OC(F)(F)F)c2)C(=O)CN1Cc1cncn1Cc1ccc(Br)cc1 | Cryptococcus neoformans farnesyltransferase | enzyme activity, inhibitor, fluorescence |  | together with: 1 µM FPP, 0.5 µM dansylated peptide |  | IC50 | 1100 ± 510 nM
COc1c(O[C@@H]2O[C@H](CO)[C@@H](O)[C@H](O)[C@H]2O)cc2c(c1O)C(=O)c1c(cc(C)c(O)c1OC)C2=O | HepaRG co-cultured with HK-2 | MTT |  | 266.67 µM, 24 h | baseline: untreated control | cell viability | 44 ± 9.9%
CCCCc1oc2ccccc2c1C(=O)c1cc(I)c(OCCN(CC)CC)c(I)c1 | Nuclear receptor subfamily 2 group C member 2 ligand-binding domain | SPR imaging |  | 600 nM |  | koff | 3.18e-07 s⁻¹
Nc1[nH]nc2nnc(-c3c(-c4ccccc4)nn4ccccc34)cc12 | MAPK3 (Homo sapiens, UniProt P27361) | ADP-Glo |  | 1.58 µM, together with: MBP substrate |  | kinase activity | 49.6% and 47.2% and 23.3%
CC(C)C[C@H](NC(=O)C[C@H](O)[C@H](CC(C)C)NC(=O)[C@H](Cc1c[nH]cn1)NC(=O)CNC(=O)[C@@H](NC(=O)[C@H](C)NC(=O)[C@H](Cc1c[nH]c2ccccc12)NC(=O)[C@H](CCC(N)=O)NC(=O)[C@@H](Cc1ccccc1)NC(=O)COCCOCCNC(=O)CCC(C(=O)O)N1CCN(CC(=O)O)CCN(CC(=O)O)CCN(CC(=O)O)CC1)C(C)C)C(N)=O (some centres unmarked) [lutetium-177 labelled] |  |  | BALB/c nu/nu mice, spleen | intravenous, 50 pmol, 1 h, together with: PA 300 µg |  | tissue uptake | 0.4 ± 0.1 %ID/g
O=c1nc(SCc2cc(F)cc(C(F)(F)F)c2)nc(SCc2ccc3nc(Cl)ccc3c2)[nH]1 | TOP2A (Homo sapiens, UniProt P11388) | DNA cleavage, competition with etoposide |  | 125 µM, together with: etoposide 50 µM |  | linear DNA | 10.9% and 9.36%
O=C(O)[C@@H]1CCCN1c1ncnc2[nH]cnc12 (racemic) | YTH domain-containing protein 1 (Homo sapiens, UniProt Q96MU7) | binding, affinity selection mass spectrometry |  |  | baseline: other proteins in batch | fold enrichment | 0.87
CN1CCN(c2cc(-c3ccncc3)c(-c3ccc4ccccc4c3)nn2)CC1 | TRHR (Homo sapiens, UniProt P34981) | agonist, FLIPR |  | 12.5 µM |  | activation | -2.1%
COc1cccc(-c2ccc(NC(=O)C3=C(C(=O)O)CCC3)c(F)c2)c1 | COS-7 |  |  | 10 µM, 24 h, 0.1% DMSO, unit not given | baseline: vehicle control | necrotic cells | 0.92 ± 0.4
CCC1(O)CCCN(C(=O)c2ccc(-c3ccc(F)c(NC(=O)CCl)c3)cc2)C1 (centres unmarked) | DNA dC->dU-editing enzyme APOBEC-3A (Homo sapiens, UniProt P31941) | covalent modifier, intact protein mass spectrometry, refers to: adduct +26309 Da |  | 250 µM, 1 h, 10-fold molar excess |  | protein adduct | 100%
O=C1OC(c2ccccc2)=N/C1=C\c1cccc(O)c1 | Pancreatic alpha-amylase (Homo sapiens, UniProt P04746) | inhibitor, Lineweaver-Burk |  | 300 ppm, together with: starch substrate |  | Km | 1600 µM
C=CC(=O)N1CCC(COCC(=O)N2CCN(c3nc(-c4cnc(N)nc4C(F)F)nc(N4CCOC[C@@H]4C)n3)CC2)CC1 | MAP2K5 (Homo sapiens, UniProt Q13163) | KINOMEscan |  | 1 µM |  | remaining binding | 96%
COc1ccc([C@H]2CNC(=O)C2)cc1OC1CCCC1 | Nuclear receptor subfamily 2 group C member 2 ligand-binding domain | SPR imaging |  | 600 nM |  | koff | 3.3e-08 s⁻¹
C[C@H](N)C(=O)N[C@@H](CCCNC(=N)N(C)C)C(=O)N[C@H](C(=O)N[C@@H](CCCCN)C(=O)N[C@@H](CCC(N)=O)C(=O)N[C@H](C(=O)N[C@@H](C)C(=O)N[C@@H](CCCNC(=N)N)C(=O)N[C@@H](CCCCN)C(=O)N[C@@H](CO)C(=O)O)[C@@H](C)O)[C@@H](C)O | Transcriptional regulator ATRX (ATRX, Homo sapiens, UniProt P46100, F284Y/K251R) | isothermal titration calorimetry |  | pH 7.5, 25.0 °C |  | binding free energy | -6.98 kcal/mol
COc1cc(O)c2c(c1)C(=O)c1cc(C)cc(O)c1C2=O | HepaRG co-cultured with HK-2 | MTT |  | 33.33 µM, 48 h | baseline: untreated control | cell viability | 94.7 ± 10.4%

Repeated from above:
Compound | target or system | assay | system | setting | scale | measurement | value
COc1cc(O)c2c(c1)oc(=O)c1c3cc(O)c(O)cc3oc21 | MAL12 (Saccharomyces cerevisiae S288c, UniProt P53341) | fluorescence quenching |  | 307 K |  | ΔG | -1.7 kcal/mol
CN1CCN(c2cc(-c3ccncc3)c(-c3ccc4ccccc4c3)nn2)CC1 | TRHR (Homo sapiens, UniProt P34981) | agonist, FLIPR |  | 12.5 µM |  | activation | -2.1%
O=C(O)[C@@H]1CCCN1c1ncnc2[nH]cnc12 (racemic) | YTH domain-containing protein 1 (Homo sapiens, UniProt Q96MU7) | binding, affinity selection mass spectrometry |  |  | baseline: other proteins in batch | fold enrichment | 0.87
